Measurements from different studies.
Numbered parts are unrelated; each lists some results of a single study. Values joined by “and” are separate records of one study, mostly repeats; a detail may differ.
UniProt P35367, sequence (whole entry, looked up): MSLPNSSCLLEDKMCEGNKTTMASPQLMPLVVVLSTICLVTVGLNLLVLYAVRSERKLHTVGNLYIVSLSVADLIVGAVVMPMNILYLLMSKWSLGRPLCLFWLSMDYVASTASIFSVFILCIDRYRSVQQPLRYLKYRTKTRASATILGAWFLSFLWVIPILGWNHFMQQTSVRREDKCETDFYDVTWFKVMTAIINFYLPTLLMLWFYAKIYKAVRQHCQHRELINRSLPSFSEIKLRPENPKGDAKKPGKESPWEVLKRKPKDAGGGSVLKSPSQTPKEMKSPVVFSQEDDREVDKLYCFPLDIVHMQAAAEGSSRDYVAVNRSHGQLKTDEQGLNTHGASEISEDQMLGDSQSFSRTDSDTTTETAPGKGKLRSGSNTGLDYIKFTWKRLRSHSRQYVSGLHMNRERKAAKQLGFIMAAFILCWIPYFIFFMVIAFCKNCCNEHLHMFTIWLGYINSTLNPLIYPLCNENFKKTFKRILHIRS
UniProt P35348, sequence (whole entry, looked up): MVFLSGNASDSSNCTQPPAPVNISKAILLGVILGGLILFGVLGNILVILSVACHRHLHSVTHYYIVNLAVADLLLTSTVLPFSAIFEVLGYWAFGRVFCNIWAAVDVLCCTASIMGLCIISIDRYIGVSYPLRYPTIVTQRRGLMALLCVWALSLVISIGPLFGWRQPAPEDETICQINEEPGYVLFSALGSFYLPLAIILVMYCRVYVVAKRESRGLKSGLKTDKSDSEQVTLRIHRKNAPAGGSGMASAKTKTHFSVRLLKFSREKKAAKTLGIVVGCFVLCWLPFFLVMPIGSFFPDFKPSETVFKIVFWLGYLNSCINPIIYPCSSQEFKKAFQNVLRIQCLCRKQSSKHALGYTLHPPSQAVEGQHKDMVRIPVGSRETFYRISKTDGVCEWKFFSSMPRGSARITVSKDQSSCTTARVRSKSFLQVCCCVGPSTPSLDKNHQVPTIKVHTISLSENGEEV
UniProt P41595, sequence (whole entry, looked up): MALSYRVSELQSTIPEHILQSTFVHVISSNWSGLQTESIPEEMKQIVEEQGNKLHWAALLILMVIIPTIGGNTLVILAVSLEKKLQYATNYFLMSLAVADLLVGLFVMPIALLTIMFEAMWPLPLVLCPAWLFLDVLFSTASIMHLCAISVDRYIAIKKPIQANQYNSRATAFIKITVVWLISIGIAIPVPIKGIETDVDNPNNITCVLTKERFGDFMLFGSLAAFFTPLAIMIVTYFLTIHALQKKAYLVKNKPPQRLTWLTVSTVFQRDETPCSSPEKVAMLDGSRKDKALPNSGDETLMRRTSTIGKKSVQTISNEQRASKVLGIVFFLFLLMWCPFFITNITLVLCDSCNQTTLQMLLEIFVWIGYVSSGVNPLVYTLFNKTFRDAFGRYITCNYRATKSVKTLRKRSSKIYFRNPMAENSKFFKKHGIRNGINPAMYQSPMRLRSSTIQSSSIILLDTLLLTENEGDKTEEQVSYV
UniProt Q5BJF2, sequence (whole entry, looked up): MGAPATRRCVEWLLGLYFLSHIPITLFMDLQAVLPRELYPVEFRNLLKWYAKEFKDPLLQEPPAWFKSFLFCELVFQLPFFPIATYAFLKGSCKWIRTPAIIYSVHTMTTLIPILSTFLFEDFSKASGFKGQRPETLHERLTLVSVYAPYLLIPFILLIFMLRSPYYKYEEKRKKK
UniProt P18089, sequence (whole entry, looked up): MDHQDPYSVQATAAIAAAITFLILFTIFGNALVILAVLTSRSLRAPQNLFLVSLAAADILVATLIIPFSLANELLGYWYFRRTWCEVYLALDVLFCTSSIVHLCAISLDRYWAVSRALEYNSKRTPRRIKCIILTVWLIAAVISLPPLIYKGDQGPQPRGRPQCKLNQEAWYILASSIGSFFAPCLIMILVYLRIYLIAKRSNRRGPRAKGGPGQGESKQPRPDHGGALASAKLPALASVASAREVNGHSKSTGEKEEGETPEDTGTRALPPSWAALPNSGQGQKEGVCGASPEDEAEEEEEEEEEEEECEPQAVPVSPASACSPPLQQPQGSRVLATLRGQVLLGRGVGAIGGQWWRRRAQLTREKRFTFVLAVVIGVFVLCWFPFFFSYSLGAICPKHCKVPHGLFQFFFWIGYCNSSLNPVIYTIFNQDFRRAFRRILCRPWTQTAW
UniProt P08173, sequence (whole entry, looked up): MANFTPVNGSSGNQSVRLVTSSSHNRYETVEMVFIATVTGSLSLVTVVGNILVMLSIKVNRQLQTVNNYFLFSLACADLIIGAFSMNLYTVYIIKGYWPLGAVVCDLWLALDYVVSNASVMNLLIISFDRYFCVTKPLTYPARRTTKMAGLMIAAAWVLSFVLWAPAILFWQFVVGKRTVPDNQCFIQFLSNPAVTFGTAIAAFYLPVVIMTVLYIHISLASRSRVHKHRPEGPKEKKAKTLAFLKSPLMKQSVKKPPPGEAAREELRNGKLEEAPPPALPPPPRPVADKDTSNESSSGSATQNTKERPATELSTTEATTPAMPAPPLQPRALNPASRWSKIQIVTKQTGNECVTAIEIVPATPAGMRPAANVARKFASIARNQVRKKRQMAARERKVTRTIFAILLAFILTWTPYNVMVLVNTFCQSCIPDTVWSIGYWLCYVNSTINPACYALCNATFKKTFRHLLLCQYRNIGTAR
UniProt P08172, sequence (whole entry, looked up): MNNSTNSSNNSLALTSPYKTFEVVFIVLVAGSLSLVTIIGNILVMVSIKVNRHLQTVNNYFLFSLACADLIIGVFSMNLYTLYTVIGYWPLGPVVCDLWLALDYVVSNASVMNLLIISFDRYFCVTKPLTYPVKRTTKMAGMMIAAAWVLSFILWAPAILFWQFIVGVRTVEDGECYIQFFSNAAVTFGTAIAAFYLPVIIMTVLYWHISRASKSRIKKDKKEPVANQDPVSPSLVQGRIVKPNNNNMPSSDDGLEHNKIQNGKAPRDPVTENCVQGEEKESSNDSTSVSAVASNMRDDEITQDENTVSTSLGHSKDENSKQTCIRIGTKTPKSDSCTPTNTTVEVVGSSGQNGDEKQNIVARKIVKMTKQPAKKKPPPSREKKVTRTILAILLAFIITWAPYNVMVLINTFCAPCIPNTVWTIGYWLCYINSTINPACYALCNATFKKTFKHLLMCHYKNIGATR
UniProt P34969, sequence (whole entry, looked up): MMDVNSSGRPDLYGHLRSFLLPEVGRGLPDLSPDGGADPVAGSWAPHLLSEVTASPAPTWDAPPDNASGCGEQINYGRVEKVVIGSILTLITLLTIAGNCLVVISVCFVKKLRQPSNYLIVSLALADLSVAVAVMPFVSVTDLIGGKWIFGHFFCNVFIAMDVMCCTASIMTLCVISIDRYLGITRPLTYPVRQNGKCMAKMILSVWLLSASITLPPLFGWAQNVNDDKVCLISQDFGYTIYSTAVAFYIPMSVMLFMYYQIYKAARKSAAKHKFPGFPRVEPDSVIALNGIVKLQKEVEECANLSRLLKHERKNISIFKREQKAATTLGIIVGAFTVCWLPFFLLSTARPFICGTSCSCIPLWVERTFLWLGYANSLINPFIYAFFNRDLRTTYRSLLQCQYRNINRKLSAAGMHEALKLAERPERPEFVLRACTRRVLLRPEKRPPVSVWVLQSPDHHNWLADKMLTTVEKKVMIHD
UniProt P50406, sequence (whole entry, looked up): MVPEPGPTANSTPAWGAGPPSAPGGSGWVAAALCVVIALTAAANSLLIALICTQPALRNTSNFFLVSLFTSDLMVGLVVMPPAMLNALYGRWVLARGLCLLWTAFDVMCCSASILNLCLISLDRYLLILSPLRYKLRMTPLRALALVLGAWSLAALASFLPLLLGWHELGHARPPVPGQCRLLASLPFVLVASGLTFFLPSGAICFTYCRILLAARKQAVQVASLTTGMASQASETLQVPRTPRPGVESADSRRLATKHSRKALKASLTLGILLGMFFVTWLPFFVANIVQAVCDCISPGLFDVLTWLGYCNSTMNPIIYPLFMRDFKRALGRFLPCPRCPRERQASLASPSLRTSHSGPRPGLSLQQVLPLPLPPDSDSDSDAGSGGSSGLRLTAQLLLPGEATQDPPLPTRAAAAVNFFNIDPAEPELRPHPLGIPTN
UniProt P08912, sequence (whole entry, looked up): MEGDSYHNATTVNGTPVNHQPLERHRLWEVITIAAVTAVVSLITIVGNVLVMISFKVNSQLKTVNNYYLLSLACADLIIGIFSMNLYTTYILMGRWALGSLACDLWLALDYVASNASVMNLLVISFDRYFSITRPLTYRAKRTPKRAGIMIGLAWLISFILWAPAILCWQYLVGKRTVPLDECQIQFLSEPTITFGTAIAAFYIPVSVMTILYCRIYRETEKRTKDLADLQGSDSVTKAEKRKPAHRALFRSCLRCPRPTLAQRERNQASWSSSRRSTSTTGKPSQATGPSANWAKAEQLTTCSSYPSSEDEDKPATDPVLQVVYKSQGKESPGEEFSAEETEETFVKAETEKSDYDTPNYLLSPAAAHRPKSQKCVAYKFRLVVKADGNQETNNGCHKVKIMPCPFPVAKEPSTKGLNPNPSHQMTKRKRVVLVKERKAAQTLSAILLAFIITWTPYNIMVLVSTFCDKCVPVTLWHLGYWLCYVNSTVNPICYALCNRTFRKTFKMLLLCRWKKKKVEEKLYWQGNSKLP

Series 1 — cell line: mouse MPNST tumor cells; technique: high-content nuclear imaging; item: cell number; concentration: 10 µM; time: 12 h; notes: mean of 2 replicates; baseline: plate mean; reading: higher = more cells
The nuclei count of `CN1C(=O)N(c2cc(Cl)cc(Cl)c2)C(=O)[C@]12CN(c1ccc(C(=O)O)cn1)C[C@H]2c1ccc(C#N)cc1` is reported as 0.118 z-score.
For `CC(=O)Oc1cccc2c1C(=O)c1c(OC(C)=O)cc(C(=O)O)cc1C2=O`, the nuclei count was -0.677 z-score and 1.26 z-score.
`CCN1CCN(Cc2ccc(C(=O)Nc3ccc(C)c(Oc4ccc5c(c4)CC(=O)N5)c3)cc2C(F)(F)F)CC1` gave a nuclei count of -4.84 z-score.
For `CCOC(=O)c1ccc(C#Cc2ccc3c(c2)C(C)(C)CCS3)nc1`, the nuclei count was -0.997 z-score.
For `COCc1ccc(-c2cc3c(N[C@@H](C)c4ccn(C)n4)c(C(N)=O)cnc3cc2F)cn1`, the nuclei count was 2.63 z-score.
`NS(=O)(=O)c1cccc2c1c([N+](=O)[O-])cc1nc(O)c(O)nc12` gave a nuclei count of -0.481 z-score.

Series 2 — target: His6 tag; technique: AlphaScreen counter screen; concentration: concentration not given
`COc1ccc(-c2nnc3ccc(SCC(=O)O)nn23)cc1OC` has an inhibition of -11.4%.
With `CO[C@@H]1[C@H](N(C)C(=O)c2ccccc2)C[C@H]2O[C@]1(C)n1c3ccccc3c3c4c(c5c6ccccc6n2c5c31)C(=O)NC4` the inhibition was 9.95%.
The inhibition of `COc1cccc(-c2cc(=O)c3ccccc3o2)c1N` is reported as -8.3%.
`O=c1[nH]cnc2scc(-c3ccc(F)cc3)c12` gave an inhibition of -5.1%.
With `Cl.O=S(=O)(c1cccc2c(Cl)cccc12)N1CCCNCC1` the inhibition was 6.45%.
With `Oc1cccc(-c2nc(N3CCOCC3)c3oc4ncccc4c3n2)c1` the inhibition was 3.7%.

Series 3 — observed: enzyme activity; action: inhibitor; concentration: 0.5 µM; baseline: control
Target: Casein kinase I isoform gamma-1 (CSNK1G1, Homo sapiens, UniProt Q9HCP0)
UniProt Q9HCP0, sequence (whole entry, looked up): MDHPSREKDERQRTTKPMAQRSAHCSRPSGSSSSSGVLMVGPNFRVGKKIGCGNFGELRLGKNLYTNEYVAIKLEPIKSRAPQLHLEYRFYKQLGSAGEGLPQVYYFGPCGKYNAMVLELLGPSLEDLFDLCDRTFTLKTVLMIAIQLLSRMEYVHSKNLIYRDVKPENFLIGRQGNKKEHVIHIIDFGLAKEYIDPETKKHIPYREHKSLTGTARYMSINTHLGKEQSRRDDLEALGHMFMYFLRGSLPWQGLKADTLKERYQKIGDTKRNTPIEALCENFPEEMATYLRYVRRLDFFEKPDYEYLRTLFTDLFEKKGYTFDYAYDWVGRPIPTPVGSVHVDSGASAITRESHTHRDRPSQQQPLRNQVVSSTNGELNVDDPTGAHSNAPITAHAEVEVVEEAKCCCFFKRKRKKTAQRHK
The remaining activity of `O=c1cc(-c2cccc3c2Sc2ccccc2S3)oc(N2CCOCC2)c1` is reported as 99.3%.
`Cc1nc2cc3nc(-c4cccs4)cnc3cc2n1C` gave a remaining activity of 92.2%.
The remaining activity of `CCN(CC)C(=O)c1ccc(Nc2nc(OCC3CCCCC3)c3[nH]cnc3n2)cc1` is reported as 68.5%.
With `N#C/C(=C\c1ccc(O)c(O)c1)C(=O)NCc1ccccc1` the remaining activity was 102%.
For `c1ccc(-c2[nH]ncc2-c2ccnc3ccccc23)nc1`, the remaining activity was 92.2%.
The remaining activity of `CCN(CC)CCNC(=O)c1c(C)[nH]c(/C=C2\C(=O)Nc3ccc(Cl)cc32)c1C` is reported as 69.2%.
`O=C(Nc1cccc(Nc2nccc(Nc3cccc(C(F)(F)F)c3)n2)c1)C1CC1` has a remaining activity of 105%.
For `c1ccc(-c2cnc(Nc3ccc(OCCN4CCCC4)cc3)s2)cc1`, the remaining activity was 94.7%.
For `O=C1C(Cl)=C(N2C(=O)CCC2=O)C(=O)c2ccccc21`, the remaining activity was 147%.
The remaining activity of `CCOc1nc(NC(=O)Cc2cc(OC)ccc2OC)cc(N)c1C#N` is reported as 97.7%.
`Cc1cc2ncc(-c3ccccc3)nc2cc1C` has a remaining activity of 85.7%.
The remaining activity of `O=C(NC(NC(=S)Nc1ccc(F)c([N+](=O)[O-])c1)C(Cl)(Cl)Cl)C(c1ccccc1)c1ccccc1` (stereo not drawn) is reported as 83.3%.
`O=C1c2ccccc2-c2n[nH]c3cccc1c23` has a remaining activity of 85.6%.
The remaining activity of `CN(C)C[C@H]1CCn2c(c(C3=C(c4cn(C)c5ccccc45)C(=O)NC3=O)c3ccccc32)C1` is reported as 97%.
With `COc1cc2ncnc(Nc3ccc(O)c(Br)c3)c2cc1OC` the remaining activity was 92.4%.
`Cc1cn(-c2cc(NC(=O)c3ccc(C)c(Nc4nccc(-c5cccnc5)n4)c3)cc(C(F)(F)F)c2)cn1` gave a remaining activity of 104%.

Series 4 — observed: cell-free assay; concentration: 10 µM
Structure (SMILES): Cc1c(C(=O)O)cc(-c2ccc(C3CCNCC3)cc2)c2ccc(-c3ccc(C(F)(F)F)cc3)cc12
It gave 12.6% for inhibition (Histamine H1 receptor (HRH1, Homo sapiens, UniProt P35367)).
The inhibition was -5.54% (Muscarinic acetylcholine receptor M4 (CHRM4, Homo sapiens, UniProt P08173)).
For 5-hydroxytryptamine receptor 6 (HTR6, Homo sapiens, UniProt P50406): inhibition read 13.5%.
It gave 19.3% for inhibition (Muscarinic acetylcholine receptor M2 (CHRM2, Homo sapiens, UniProt P08172)).
For Muscarinic acetylcholine receptor M5 (CHRM5, Homo sapiens, UniProt P08912): inhibition read 10.1%.
For Alpha-2B adrenergic receptor (ADRA2B, Homo sapiens, UniProt P18089): inhibition read 79%.
The inhibition was -3.66% (5-hydroxytryptamine receptor 7 (HTR7, Homo sapiens, UniProt P34969)).
It gave 25.4% for inhibition (Alpha-1A adrenergic receptor (ADRA1A, Homo sapiens, UniProt P35348)).
For 5-hydroxytryptamine receptor 2B (HTR2B, Homo sapiens, UniProt P41595): inhibition read 6.6%.
D(1A) dopamine receptor (DRD1, Homo sapiens, UniProt P21728) — inhibition: 61.4%.
Sigma intracellular receptor 2 (TMEM97, Homo sapiens, UniProt Q5BJF2) — inhibition: 92.7%.
